Published values from different studies.
Several values in a cell are separate wells, animals, samples, runs or records.
Target: Serine/threonine-protein kinase Chk1 (CHEK1, Homo sapiens, UniProt O14757)

SMILES	assay	system	conditions	scale	endpoint	value
CCN1CCN(Cc2ccc(C(=O)Nc3ccc(C)c(NCc4cnc5[nH]ccc5c4OC)c3)cc2C(F)(F)F)CC1	binding, competition with immobilised ligand	–	1 µM	–	remaining binding	100%
CCn1cc(C(=O)O)c(=O)c2c(N)c(F)c(NC3CCCCC3)cc21	kinase activity	–	0.1 µM, with: ATP at Km	–	inhibition	-10%
Cc1cnc2nc1Nc1cccc(c1)COC/C=C/COCc1cc(ccc1OCCN1CCOCC1)N2	–	–	concentration not given	–	percent of control	96%
CN1CCN(Cc2ccc(-c3ccc(CO[C@H]4CCC[C@@H]4NC(=O)c4cc(-c5cnn(C)c5)cnc4N)cc3)cc2)CC1	enzyme activity, inhibitor	–	0.1 µM	–	inhibition	-7%
Cc1cccc(-c2ccc3nc(NC(=O)C4CCOCC4)nn3c2)c1	enzyme activity, Dundee kinase panel	–	10 µM	–	remaining activity	70%
CNC(=O)C1CCN(c2cc(C)c(F)cc2NC(=O)c2ccc(-c3cc(O)ccc3C)c(C)c2)CC1	binding, competition with immobilised ligand	–	1 µM	–	remaining binding	99%
CC(=O)N1c2ccc(-c3ccc(CNC(=O)c4cn5cc(-c6cnc(N)nc6)nc(N6CCOCC6)c5n4)cc3)cc2CC[C@@H]1C	KINOMEscan	–	10 µM	–	remaining binding	97%
C=CC(=O)Nc1cccc(-c2cnc3[nH]cc(C(=O)NC(C)(C)C)c3n2)c1	kinase activity	–	0.1 µM	–	inhibition	22% and 12%
Nc1nc(Nc2ccccc2)sc1C(=O)c1ccccc1	enzyme activity, inhibitor	–	10 µM	–	remaining activity	24%
Cc1cccc(-c2ccc3nc(NC(=O)C4CCCO4)nn3c2)c1 (centres unmarked)	enzyme activity, Dundee kinase panel	–	10 µM	–	remaining activity	76%
NC(=O)[C@@H](O)C[C@H]1CCc2sc3ncnc(O[C@H]4CC[C@H](N5CCOCC5)CC4)c3c21	enzyme activity, inhibitor	–	10 µM	–	inhibition	1%
CC(C)=CC1OC(C)(C)C2C=C3C(=O)C(Cl)=CC(O)C3C3C(O)C4OC4C(=O)C132 (centres unmarked)	cell-free assay, competition with immobilised ligand	–	10 µM	–	remaining binding	90%
C=CC(=O)N1CCc2ccc(-n3c(=O)ccc4cnc5ccc(-c6cnn(C)c6)cc5c43)cc21	KINOMEscan	–	1 µM	relative to: DMSO control	remaining binding	100%
COc1c(Cl)cccc1Nc1c(-c2ccncc2C#C[C@@]2(C)CCCN2C(=O)/C=C/CN(C)C)[nH]c2c1C(=O)NCC2	binding, competition with immobilised ligand	–	3 µM	–	remaining binding	93%
CNC1C[S+]2CC[S+]3CC[S+](C1)[Ru-4]321([N]=C=S)[n]2c3ccc(OC)cc3c3c4c(c5cc(F)c[n+]1c5c32)C(=O)NC4=O (centres unmarked)	KinomeScan	–	0.1 µM	relative to: untreated	remaining binding	71%
COc1ccc(NC(=O)Nc2ccc3c(c2)C(=O)N(C(C)CO)CC(C)C(CN(C)Cc2ccc4c(c2)OCO4)O3)cc1 (centres unmarked)	binding, competition with immobilised ligand	–	10 µM	–	remaining binding	100%
COc1cc(Nc2nccc(-c3cnn4nc(OC)ccc34)n2)cc(C(F)(F)F)c1	binding, competition with immobilised ligand	–	1 µM	–	remaining binding	100%
CN1CCN(Cc2ccc(NC(=O)c3cccc(C#Cc4cnc(N)c5ncccc45)c3)cc2C(F)(F)F)CC1	cell-free assay, competition with immobilised ligand	–	0.5 µM	–	remaining binding	82%
Cc1cccc(O[C@H]2CCC[C@@H](C(C)CNCc3ccncc3)C2)c1 (relative stereo)	kinase activity, kinome panel screening	–	1 µM	–	inhibition	2%
CNS(=O)(=O)Nc1nccc(Cc2c(C)c3ccc(Oc4ncccc4F)cc3oc2=O)c1F	binding, competition with immobilised ligand	–	10 µM	–	remaining binding	98%
COc1c(OCCCN2CCOCC2)ccc2c1N=C(NC(=O)c1cnc(N)nc1)N1CCN=C21	kinase activity, inhibitor	–	1 µM	relative to: untreated control	remaining activity	89%
N[C@H]1CC[C@H](Nc2nccc(-c3cccnc3Oc3ccc(NC(=O)NC4CC4)c4ccccc34)n2)CC1	kinobead competition pulldown	HEK293/HCT116 lysate mixture	10 µM, 1 h, 4 °C	lower = stronger competition	log2 LFQ intensity	24.2 and 24.3
C=CC(=O)N1CCCC(n2c(=O)c3ncccc3n(Cc3ccc(Oc4ccccc4)cc3)c2=O)C1 (centres unmarked)	cell-free assay, competition with immobilised ligand	–	1 µM	–	remaining binding	92%
